Measurements collected from several papers.
A part holds a random share of what one study measured. Several values in a cell are separate wells, animals, samples, runs or records.
Chain of UniProt D3Z7P3 (whole entry, looked up): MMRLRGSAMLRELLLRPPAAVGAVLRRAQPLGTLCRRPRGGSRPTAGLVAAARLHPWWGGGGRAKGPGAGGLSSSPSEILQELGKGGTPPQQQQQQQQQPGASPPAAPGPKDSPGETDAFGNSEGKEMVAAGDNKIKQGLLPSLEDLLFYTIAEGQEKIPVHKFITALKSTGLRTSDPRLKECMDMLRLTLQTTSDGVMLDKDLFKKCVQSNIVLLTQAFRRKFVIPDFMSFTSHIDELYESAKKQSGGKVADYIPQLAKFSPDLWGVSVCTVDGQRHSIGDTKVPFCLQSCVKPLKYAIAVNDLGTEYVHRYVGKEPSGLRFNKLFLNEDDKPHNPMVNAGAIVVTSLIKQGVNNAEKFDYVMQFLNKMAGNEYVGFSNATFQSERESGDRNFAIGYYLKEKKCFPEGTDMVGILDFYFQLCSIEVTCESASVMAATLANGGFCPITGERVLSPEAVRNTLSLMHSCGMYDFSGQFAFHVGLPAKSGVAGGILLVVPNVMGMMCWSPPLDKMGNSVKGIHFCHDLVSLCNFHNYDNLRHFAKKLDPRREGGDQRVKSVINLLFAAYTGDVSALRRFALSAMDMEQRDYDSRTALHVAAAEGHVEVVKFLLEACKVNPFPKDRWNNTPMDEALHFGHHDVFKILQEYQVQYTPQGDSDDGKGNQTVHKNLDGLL

Sample 1
Cell line: HEK-293T-ACE2-TMPRSS2
Technique: cell count
Concentration: concentration not given
Endpoint: viability
Cn1cc(C(=O)O/N=C(\N)c2ccc(C(C)(C)C)cc2)c(C(F)(F)F)n1: 71%
C#CCOc1ccc(C2C(C#N)=C(N)Oc3cc4c(cc32)OCO4)cc1Cl (stereo not shown): 75%
O=C(NCc1ccccc1Cn1cccn1)c1cnc(S)n1-c1ccccc1: 261%
O=C(c1ccc(-n2cnnc2)cc1Cl)N1CCN(CCOc2ccc(Cl)cc2)CC1: 65%

Sample 2
Cell line: mouse MPNST tumor cells
Technique: high-content nuclear imaging
Refers to: cell number
Concentration: 10 µM
Time: 12 h
Notes: mean of 2 replicates
Relative to: plate mean
Reading: higher = more cells
Endpoint: nuclei count
C=CCN1CC[C@]23c4c5ccc(O)c4O[C@H]2C(=O)CC[C@@]3(O)[C@H]1C5: 1.34 z-score
COc1ccc(C(CN(C)C)C2(O)CCCCC2)cc1 (stereo not shown): -0.422 z-score and 3.81 z-score
CC(Cc1ccccc1)NCCC(c1ccccc1)c1ccccc1 (stereo not shown): -4.86 z-score

Other studies, line by line
Diamine acetyltransferase 1: Diamine acetyltransferase 1 (Homo sapiens, UniProt P21673)
Chain of UniProt P21673 (whole entry, looked up): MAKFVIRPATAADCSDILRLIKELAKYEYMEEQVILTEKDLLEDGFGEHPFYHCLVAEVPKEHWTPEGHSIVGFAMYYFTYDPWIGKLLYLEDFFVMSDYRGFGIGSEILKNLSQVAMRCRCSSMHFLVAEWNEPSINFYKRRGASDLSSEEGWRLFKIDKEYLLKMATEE
O=c1ccc2ccc3occc3c2o1
remaining activity (Diamine acetyltransferase 1; inhibitor; 10 µM; relative to: control): 103%

[N-]=[N+]=CC(=O)CC[C@H](N)C(=O)O
enzyme activity (Glutaminase kidney isoform, mitochondrial (Mus musculus, UniProt D3Z7P3); C57BL/6 CES1-/- mouse, EL4 tumour, tumour; subcutaneous, dose not given): 454 fmol/mg/h

COc1ccc(C=O)cc1
remaining activity (Diamine acetyltransferase 1; inhibitor; 10 µM; relative to: control): 86.1%

Repeated from above (sample 1):
O=C(c1ccc(-n2cnnc2)cc1Cl)N1CCN(CCOc2ccc(Cl)cc2)CC1: 65%
